Results collected from several papers.
Numbered parts are unrelated; each lists some results of a single study. Substitutions count along the parent as printed.

Block 1
Target: ABI1, truncated, D143A, DHFR fusion (Arabidopsis thaliana)
Technique: DHFR PCA, deep sequencing
Sample: yeast
Notes: methotrexate growth selection, single substitutions
Together with: (+)-ABA 200 µM
Baseline: wild-type fitted maximum
Direction: higher = stronger binding
Measurement: relative binding score
Starting sequence: PYL1, truncated, DHFR fusion (Arabidopsis thaliana); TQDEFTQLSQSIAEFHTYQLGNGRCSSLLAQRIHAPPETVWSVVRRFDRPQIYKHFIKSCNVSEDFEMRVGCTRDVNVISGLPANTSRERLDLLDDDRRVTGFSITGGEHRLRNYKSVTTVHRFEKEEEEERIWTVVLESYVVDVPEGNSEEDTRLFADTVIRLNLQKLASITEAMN; partner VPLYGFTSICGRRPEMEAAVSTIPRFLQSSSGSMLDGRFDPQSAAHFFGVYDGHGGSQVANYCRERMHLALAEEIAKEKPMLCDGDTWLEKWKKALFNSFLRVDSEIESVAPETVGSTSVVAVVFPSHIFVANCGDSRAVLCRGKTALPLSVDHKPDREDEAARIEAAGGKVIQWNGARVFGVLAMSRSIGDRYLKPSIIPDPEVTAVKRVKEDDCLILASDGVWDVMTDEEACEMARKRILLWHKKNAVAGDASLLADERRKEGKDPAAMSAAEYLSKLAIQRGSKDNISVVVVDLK
G81F: 21.9%
R24V: 93.5%
Y141P: 7.99%
R155S: 71.8%
S87E: -14.1%
N114V: -16%
R113I: 106%
T106P: 15.9%
D144S: 77%
I52P: 44%
E109D: 114%
V145R: 64.7%
F66E: 91.7%
R46T: 83.3%
N165A: 11.5%
V121T: 53.6%
R46N: 76.9%
E109K: 107%
R113L: 97.9%
D3L: 99.2%
R45D: -17.1%

Block 2
Target: Fragile X messenger ribonucleoprotein 1, C-terminal low-complexity region (Fmr1, Mus musculus, UniProt P35922)
Technique: RNA Bind-n-Seq
Form: RNA
Sample: in vitro
Concentration: 200 nM
Notes: whole 134-nt RNA, ends assumed
Together with: 150 mM LiCl
Baseline: input library
Direction: higher = stronger binding
Measurement: log2 enrichment
All molecules: 7-deaza-guanosine replaces G
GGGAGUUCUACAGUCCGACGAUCGUCCUGUGCUACACAUCGUAUGUACCGAAUCGGGGUUUUUGGGUUUUUGGGUUUUUGGAAAGUAUUAUGUUACGCCGUUCGGAUCUGCACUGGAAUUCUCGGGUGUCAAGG: -0.87
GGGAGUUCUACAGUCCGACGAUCCCUGUGCUACACAUCGUAUGUACCGAAUCGGGGCCCCCCGGCCCCCCGGGGCCCCCCGGGGAAAGUAUUAUGUUACGCCGUUCGGAUCUGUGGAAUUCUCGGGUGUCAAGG: -1.23
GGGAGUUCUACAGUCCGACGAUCCACAGACAACACGCACCCACACAGACACAGAGGGAAGGGGUUGGGAUGGGAACAGGGUGCACAGCAGGGCGGGGUAGGACCCCAGCCCCUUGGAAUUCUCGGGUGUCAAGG: 0.631
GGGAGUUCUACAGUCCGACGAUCUCAAGUCCUGUGCUACACAUCGUAUGUACCGAAUCGGUUGGGGUUGGGUUGGGGAAAGUAUUAUGUUACGCCGUUCGGAUCUGCACUUCCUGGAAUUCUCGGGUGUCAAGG: -0.684
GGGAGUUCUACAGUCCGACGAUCAAGUCCUGUGCUACACAUCGUAUGUACCGAAUCGGAAAAAAAGGUUUUUGGAAAGGAAAGUAUUAUGUUACGCCGUUCGGAUCUGCACUUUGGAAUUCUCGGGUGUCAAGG: -2.72
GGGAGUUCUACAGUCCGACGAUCUAACUUUAGAGGAGGAUCUGAUGGAUAUGGCAGUGGACGUGAAUUUGGGGAUGGCUAUAAUGGGUAUGGAGGAGGACCUGGAGGUGGCAAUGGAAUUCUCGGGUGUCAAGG: -0.783
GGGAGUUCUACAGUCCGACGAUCCAAGUCCUGUGCUACACAUCGUAUGUACCGAAUCGGGCCCGGCCCGGGGCCCGGGGAAAGUAUUAUGUUACGCCGUUCGGAUCUGCACUUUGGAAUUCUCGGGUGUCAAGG: -2.66
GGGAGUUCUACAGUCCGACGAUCUUUCAAAGCCAAAGGGCCUUGUGACGCCCCUCUUGCCCACCUCCCUCCACACCGUGUCCUCCCCUAUAUGACAAUCAAUGUGACCUCUCUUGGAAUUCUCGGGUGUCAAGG: 1.76

Block 3
Target: CCNE1, cyclin fold, Cln2 fusion (human)
Technique: yeast growth competition, sequencing
Sample: yeast
Notes: strong parent motif
Baseline: not given
Direction: higher = stronger binding
Measurement: normalised enrichment score
Starting sequence: RBL2 docking peptide (human); STTRRRLFVENDS
V9H: 5.86
V9E: 5.67
S1D: 4.48
S1E: 4.76
F8E: 0.86
T3P: 4.94
V9Y: 5.29
T3V: 7.64
V9I: 6.72
D12F: 3.78
R4Y: 1.91
F8T: -0.0337
S1N: 5.9

Block 4
Target: RING finger protein unkempt homolog, zinc fingers 1-6, GST-SBP tag (UNK, Homo sapiens, UniProt Q9C0B0, residues 30-357)
Sequence of UniProt Q9C0B0 (30-357, looked up): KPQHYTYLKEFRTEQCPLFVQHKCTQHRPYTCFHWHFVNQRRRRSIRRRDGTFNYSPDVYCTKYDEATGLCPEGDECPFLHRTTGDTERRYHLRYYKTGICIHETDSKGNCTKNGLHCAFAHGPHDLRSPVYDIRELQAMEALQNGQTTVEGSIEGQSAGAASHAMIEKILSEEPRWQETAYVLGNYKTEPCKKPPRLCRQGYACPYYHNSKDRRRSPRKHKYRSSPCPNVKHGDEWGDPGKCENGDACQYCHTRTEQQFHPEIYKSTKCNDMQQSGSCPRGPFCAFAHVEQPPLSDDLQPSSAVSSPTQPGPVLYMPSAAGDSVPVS
Technique: RNA Bind-n-Seq
Form: RNA
Sample: in vitro
Concentration: not given
Notes: RNA with constant flanks, human and mouse sites, ends assumed
Baseline: input RNA pool
Direction: higher = stronger binding
Measurement: bound/input enrichment
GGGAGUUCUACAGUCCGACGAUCCUGUGCGACUAUUCUCCGGGAGCCGUCCGUGUCACCGCCGGAACCUGGCGCAGGUUAAUUAUAGAAAAUGCCAAGUAGGAAAUUUGCCGAUGGUGAAGUGGUAAGAGGUCGAUGGCCUGGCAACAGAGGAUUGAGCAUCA: 0.952 ratio
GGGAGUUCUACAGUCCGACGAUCAUUUGUUUAGUGAAUGACCCUAGGCCCCAGCACAAGUACAACAAACUUUACACAGUGGAAUACUUAAGCAAUAUGGUUGGAGGGAGAAAAACUCUAUACAACAACCAGCCCAUUGACUUCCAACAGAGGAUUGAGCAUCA: 0.397 ratio
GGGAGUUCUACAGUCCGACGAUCGCCUUGGUCCUAGCACCCACUCGAGAAUUGGCUCAGCAGAUACAGAAGGUGGUCAUGGCACUAGGAGACUACAUGGGCGCCUCCUGUCACGCCUGUAUCGGGGGCACCAACGUGCGUGCUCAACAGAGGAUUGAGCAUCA: 0.135 ratio
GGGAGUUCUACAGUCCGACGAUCUUGGCUUCAGUGCCCGCUGGAGCCUUUUCCCGCCUGCACAAGUUGGCACGACUGGACAUGACCUCCAACCGCCUAACCACCAUCCCUCCUGACCCACUCUUCUCACGUUUGCCACUGCUUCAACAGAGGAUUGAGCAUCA: 0.235 ratio
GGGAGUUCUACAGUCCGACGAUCGACGGUCCAUCCAAGGUGUCUUACACCUUACAGCGCCAGACUAUCUUCAACAUUUCCCUUAUGAAACUCUAUAACCACAGGCCCCUGACAGAGCCCAGCUUGCAAAAGACCGUUUUAAUUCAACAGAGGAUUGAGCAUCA: 0.197 ratio
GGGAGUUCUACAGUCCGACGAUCAGGCCCGAACCAAACUUUUCCGGGCCACUCGGCGGCCCGAGACCAGGGGGAAGGGGGGGACAGGGAGAAGGAAGCCGGUGGCGGCGCCUGGGGCUCGCGGGCGAGCCUCCCUCCGCGGCCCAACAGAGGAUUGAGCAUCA: 0.0875 ratio
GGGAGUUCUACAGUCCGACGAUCCCGAUCUUCACUUCUAGCAGGUUUUUUAAACGUGACCCUUGGCUGUAUUUCCCAUCUUCACAGUUCAAGCACCCCAAACCUGCCCUUUCUCCCCUGCAGACUGGCAGGUGGGAUUGGCUCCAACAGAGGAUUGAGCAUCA: 0.138 ratio
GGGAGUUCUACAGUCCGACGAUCAGUAGGAAAAUCACCGUUCUGCAAGUGAACGAGAAGUCCCUCAUCCGGCAGUACACCACCUUAGUGGAGAUGGAGCGGCACCUGAGAAAGGAAAACGGGAAACACAGGAAUGACGUCAUACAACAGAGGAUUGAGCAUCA: 0.187 ratio

A few entries again (block 2):
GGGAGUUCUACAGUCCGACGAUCGUCCUGUGCUACACAUCGUAUGUACCGAAUCGGGGUUUUUGGGUUUUUGGGUUUUUGGAAAGUAUUAUGUUACGCCGUUCGGAUCUGCACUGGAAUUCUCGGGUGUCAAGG: -0.87
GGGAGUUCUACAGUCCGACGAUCCCUGUGCUACACAUCGUAUGUACCGAAUCGGGGCCCCCCGGCCCCCCGGGGCCCCCCGGGGAAAGUAUUAUGUUACGCCGUUCGGAUCUGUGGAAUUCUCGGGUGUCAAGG: -1.23
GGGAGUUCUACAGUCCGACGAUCCACAGACAACACGCACCCACACAGACACAGAGGGAAGGGGUUGGGAUGGGAACAGGGUGCACAGCAGGGCGGGGUAGGACCCCAGCCCCUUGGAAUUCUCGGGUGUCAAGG: 0.631
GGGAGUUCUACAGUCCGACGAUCUCAAGUCCUGUGCUACACAUCGUAUGUACCGAAUCGGUUGGGGUUGGGUUGGGGAAAGUAUUAUGUUACGCCGUUCGGAUCUGCACUUCCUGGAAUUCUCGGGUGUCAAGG: -0.684
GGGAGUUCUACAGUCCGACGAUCAAGUCCUGUGCUACACAUCGUAUGUACCGAAUCGGAAAAAAAGGUUUUUGGAAAGGAAAGUAUUAUGUUACGCCGUUCGGAUCUGCACUUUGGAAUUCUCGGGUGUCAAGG: -2.72
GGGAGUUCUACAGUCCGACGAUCUAACUUUAGAGGAGGAUCUGAUGGAUAUGGCAGUGGACGUGAAUUUGGGGAUGGCUAUAAUGGGUAUGGAGGAGGACCUGGAGGUGGCAAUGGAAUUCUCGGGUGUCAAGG: -0.783
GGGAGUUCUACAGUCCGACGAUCCAAGUCCUGUGCUACACAUCGUAUGUACCGAAUCGGGCCCGGCCCGGGGCCCGGGGAAAGUAUUAUGUUACGCCGUUCGGAUCUGCACUUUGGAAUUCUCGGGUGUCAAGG: -2.66
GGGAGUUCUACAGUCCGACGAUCUUUCAAAGCCAAAGGGCCUUGUGACGCCCCUCUUGCCCACCUCCCUCCACACCGUGUCCUCCCCUAUAUGACAAUCAAUGUGACCUCUCUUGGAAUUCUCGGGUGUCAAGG: 1.76
